Assay results gathered from unrelated publications.
± marks the error that the study gave.

SMILES | cell line | assay | system | conditions | IC50
CCCOc1ccc2c(C)cc(=O)oc2c1I | PAM212 | cell growth |  | 4 to 5 days, together with: UVA 1.28 J/cm^2 | 50 µM
C=CC(=O)N1CC2CC(n3nc(-c4ccc(C(=O)Nc5ccccn5)cc4)c4c(N)ncnc43)CC2C1 (stereo not drawn) | TMD8 | IL-6 secretion |  | 16 h | 0.0005 µM
CNC(=O)c1cc(Oc2ccc(NC(=O)Nc3ccc(Cl)c(C(F)(F)F)c3)cc2)ccn1 | MHCC97H | cell growth or viability, MTT |  |  | 1 µM
NC(=O)CC[C@H](N)C(=O)O | rat hippocampal neurons | calcium-dependent uptake |  | together with: 5.4 µM 14C-MeAIB | 162 ± 17 µM
C#CCOc1ccc(/C=C/C(=O)CC(=O)/C=C/c2ccc(OCC#C)c(OC)c2)cc1OC | mouse Peritoneal macrophage | IL-6 release, inhibitor, ELISA |  | LPS-stimulated | 2.23 µM
O=C1C(=Cc2ccccc2)CN(C(=O)CCCCCCC(=O)N2CC(=Cc3ccccc3)C(=O)C(=Cc3ccccc3)C2)CC1=Cc1ccccc1 | MOLT-4/C8 and CEM cells | cytotoxicity |  |  | 1.91 µM
Nc1ccn([C@@H]2CS[C@H](CO)O2)c(=O)n1 | human monocyte-derived macrophages | cytotoxicity, MTT |  | 48 h, 4 h pretreatment | 2500 µg/mL
C=CC[C@@H]1/C=C(\C)C[C@H](C)C[C@H](OC)[C@H]2O[C@@](O)(C(=O)C(=O)N3CCCC[C@H]3C(=O)O[C@H](/C(C)=C/[C@@H]3CC[C@@H](O)[C@H](OC)C3)[C@H](C)[C@@H](O)CC1=O)[C@H](C)C[C@@H]2OC | human astrocytes | C3 secretion, ELISA |  | together with: stimulated PBMC supernatant | > 1 µM
COc1cc([C@@H]2c3cc4c(cc3[C@@H](O[C@@H]3O[C@@H]5CO[C@@H](C)O[C@H]5[C@H](O)[C@H]3O)[C@H]3COC(=O)[C@H]23)OCO4)cc(OC)c1O | human iPSC-derived sensory neurons | cell viability, resazurin reduction |  | 48 h | 3.2 µM
CC(C)C[C@H](NC(=O)[C@H](Cc1ccccc1)NC(=O)c1cnccn1)B(O)O | WSUDLCL2 | proteasome β5 activity, inhibitor, Proteasome-Glo β5 |  | 1 h | 0.0027 ± 0.00026 µM
CC(C)C[C@H](NC(=O)CNC(=O)c1cc(Cl)ccc1Cl)B(O)O | human astrocytes | C3 secretion, ELISA |  | together with: stimulated PBMC supernatant | < 0.025 µM
O=C(CN1CCN(c2ccc(Cl)cc2)CC1)Nc1ccc(C(=O)C=Cc2ccccc2)cc1 | HCT-116, PC-3, MCF7, MDA-MB-231 average | MTT |  |  | 36 µM
CCCCCCCCNC(=O)C[C@H]1Oc2ccccc2C(=O)[C@]1(C)[N+](=O)[O-] | DU-145 | cell growth or viability, SRB |  | 96 h | 6.81 µM
CC(=O)Nc1ccc(O)cc1 | ReNcell VM, differentiated astrocytic | cell viability, live/dead 3D alginate microarray |  | 24 h exposure plus 48 h, 6 days differentiation | 14100 µM
CNC(=O)c1cc(Oc2ccc(NC(=O)Nc3ccc(Cl)c(C(F)(F)F)c3)cc2)ccn1 | TF-1 expressing FLT3-ITD | ERK activity inhibition, ex vivo, inhibitory Emax model | plasma | adjusted for N-oxide metabolite potency | 0.0857 µg/mL
COc1ccc(N2CCN(CC(=O)Nc3ccc(C4=NN(C(C)=O)C(c5ccco5)C4)cc3)CC2)cc1 (stereo not drawn) | HCT-116, PC-3, MCF7, MDA-MB-231 average | MTT |  |  | 6 µM
Cc1ccc(S(=O)(=O)/C=C/C#N)cc1 | HeLa expressing Ub(G76V)-GFP | Ub(G76V)-GFP degradation, inhibitor, cycloheximide chase |  |  | 3 ± 0.8 µM
CC12CC3CC(C)(C1)CC(NC(=O)C[C@H]1Oc4ccccc4C(=O)[C@]1(C)[N+](=O)[O-])(C3)C2 | DU-145 | cell growth or viability, SRB |  | 96 h | 5.41 µM
Cc1cc2cc(C=C3C(=O)Nc4ccccc43)c(Cl)nc2cc1C | A2780 | cell growth or viability, MTT |  | 72 h | > 100 µM
O=C(CN1CCN(c2ccc(Cl)cc2)CC1)Nc1ccc(C(=O)C=Cc2ccc(Cl)cc2Cl)cc1 | HCT-116, PC-3, MCF7, MDA-MB-231 average | MTT |  |  | 41 µM
COc1cc(-c2nc3ccc(C(=O)Nc4ccccc4)cc3[nH]2)cc(OC)c1OC | MRC5 | cell growth or viability, MTT |  | 72 h | 11.6 µM

SMILES | cell line | assay | system | conditions | IC50
Cc1ncn(-c2ccc3cc2OC/C=C\CNc2nc(nc4c2CC[C@H]4c2ccc(Cl)cc2F)N3)n1 | H4-APPsw | amyloid-beta 1-42 secretion, inhibitor, HTRF immunoassay, refers to: amyloid-beta 1-42 |  | overnight | 0.0035 µM
O=S1(=O)N=C(NCCc2c[nH]c3ccccc23)Nc2ccc(F)cc21 | MDA-MB-468 | cell growth or viability, MTS |  | 72 h | 36 µM
O=[N+]([O-])c1cc(NCc2cccc3nonc23)ccc1Cl | HEK-293T CRE-RLuc transfected | CREB reporter gene |  | 5 h, together with: forskolin 10 µM | inactive
CC[n+]1c(/C=C/N(C)c2ccccc2)n(-c2ccccc2)c2ccc(-c3nc4ccccc4s3)cc21 | HeLa expressing Ub(G76V)-GFP | Ub(G76V)-GFP degradation, inhibitor, cycloheximide chase |  |  | 10 ± 2 µM
CC1(C)C2CC[C@]1(C)C(=O)/C2=C/c1ccoc1 | GES1 | cell growth or viability, SRB |  | 72 h | 238 µM
CC(=O)Oc1c(C=CCN2C(=O)c3ccccc3C2=O)cc2c(C)c(Br)c(=O)oc2c1C | PAM212 | cell growth |  | 4 to 5 days, together with: UVA 1.28 J/cm^2 | 20 µM
COc1ccc(C=CC(=O)c2ccc(NC(=O)CN3CCN(c4ccc(OC)cc4)CC3)cc2)cc1 | HCT-116, PC-3, MCF7, MDA-MB-231 average | MTT |  |  | 26 µM
Cn1nnc2c(C(N)=O)ncn2c1=O | UACC-903 | cell proliferation, MTS |  | 24 h, together with: 10 µM HNL | 251 µM
Cc1c(O)ccc2cc(Br)c(=O)oc12 | PAM212 | cell growth |  | 4 to 5 days, together with: UVA 1.28 J/cm^2 | 20 µM
COc1ccc(N2CCN(CC(=O)Nc3ccc(C(=O)C=Cc4ccccc4)cc3)CC2)cc1 | HCT-116, PC-3, MCF7, MDA-MB-231 average | MTT |  |  | 70 µM
CC[C@]1([N+](=O)[O-])C(=O)c2ccccc2O[C@@H]1CC(=O)NC1CCCCC1 | DU-145 | cell growth or viability, SRB |  | 96 h | 11.1 µM
Cc1cc(C)n(C(N)=S)n1.Cc1ccc(C(C)C)cc1.[Cl][Ru][Cl] | HFF-1 foreskin fibroblasts | viability, MTT |  | 24 h | 545 µM
CCC[C@H](NC(=O)c1ccc(CCCc2cc3c(=O)[nH]c(N)nc3[nH]2)s1)C(=O)O | KB cells | cell growth |  | together with: folic acid 200 nM | > 1 µM
O=S1(=O)N=C(NCc2ccccc2)Nc2ccc(F)cc21 | MDA-MB-468 | cell growth or viability, MTS |  | 72 h | 58 µM
COC(=O)c1cc(CN2CCN(C(=N)N)CC2)cc(C(=O)N2CCN(C(=O)c3ccc(C(=N)N)cc3)CC2)c1 | mouse F9 cells | CHRM4 and SCN3A gene activation, activator, qRT-PCR, refers to: CHRM4 and SCN3A mRNA |  | 24 h | 3.74 µM
O=S1(=O)N=C(NCCc2ccccc2)Nc2ccc(Br)cc21 | MDA-MB-468 | cell growth or viability, MTS |  | 72 h | 18.6 µM
COc1ccc2c(c1)C(=O)[C@](C)([N+](=O)[O-])[C@@H](CC(=O)NC13CC4CC(CC(C4)C1)C3)O2 | DU-145 | cell growth or viability, SRB |  | 96 h | 2.62 µM
COc1ccc2c(CC(=O)NCCCC[C@H](N)C(=O)N[C@@H](CCC(=O)O)C(=O)N[C@@H](Cc3ccc(CS(=O)(=O)O)cc3)C(=O)N[C@@H](CCC(=O)O)C(=O)N[C@@H](Cc3ccc(CS(=O)(=O)O)cc3)C(=O)N[C@@H](CC(C)C)C(=O)N[C@@H](CC(=O)O)C(=O)N[C@@H](Cc3ccc(CS(=O)(=O)O)cc3)C(=O)N[C@@H](CC(=O)O)C(=O)N[C@@H](Cc3ccccc3)C(=O)N[C@@H](CC(C)C)C(=O)N3CCC[C@H]3C(=O)N[C@@H](CCC(=O)O)C(=O)N[C@H](C(=O)N[C@@H](CCC(=O)O)C(=O)N3CCC[C@H]3C(=O)N[C@@H](CC(C)C)C(=O)O)[C@@H](C)O[C@H]3O[C@H](CO[C@@H]4O[C@H](CO)[C@@H](O[C@@H]5O[C@H](CO)[C@H](O)[C@H](O[C@]6(C(=O)O)C[C@H](O)[C@@H](NC(C)=O)[C@H]([C@H](O)[C@H](O)CO)O6)[C@H]5O)[C@H](O[C@@H]5O[C@@H](C)[C@@H](O)[C@@H](O)[C@@H]5O)[C@H]4NC(C)=O)[C@H](O)[C@H](O[C@@H]4O[C@H](CO)[C@H](O)[C@H](O)[C@H]4O)[C@H]3NC(C)=O)cc(=O)oc2c1 | human monocytes | monocyte capture under shear flow, inhibitor | ICAM-1/P-selectin substrate | shear 2 dyn/cm2 | 3 µM
C[C@]1([N+](=O)[O-])C(=O)c2ccccc2O[C@@H]1CC(=O)NCc1ccccc1 | DU-145 | cell growth or viability, SRB |  | 96 h | 19.5 µM
N=C(N)NCCC[C@H](NC(=O)[C@H](CCCNC(=N)N)NC(=O)[C@H](Cc1c[nH]c2ccccc12)NC(=O)[C@H](CCC(N)=O)NC(=O)[C@H](Cc1c[nH]c2ccccc12)NC(=O)[C@H](CCCNC(=N)N)NC(=O)[C@H](Cc1c[nH]c2ccccc12)NC(=O)[C@H](CCC(N)=O)NC(=O)[C@H](Cc1c[nH]c2ccccc12)NC(=O)[C@H](CCCNC(=N)N)NC(=O)[C@@H](N)CCCNC(=N)N)C(N)=O | primary fibroblasts | cell viability, MTT |  | 2 h | > 111 µM
N=C(N)c1ccc(-c2ccc(-c3ccc(C(=N)N)cc3)o2)cc1 | MDA-MB-468 | cell growth or viability, MTT |  | 96 h | 11 µM

Repeated from above:
SMILES | cell line | assay | system | conditions | IC50
CC(C)C[C@H](NC(=O)[C@H](Cc1ccccc1)NC(=O)c1cnccn1)B(O)O | WSUDLCL2 | proteasome β5 activity, inhibitor, Proteasome-Glo β5 |  | 1 h | 0.0027 ± 0.00026 µM
CC(C)C[C@H](NC(=O)CNC(=O)c1cc(Cl)ccc1Cl)B(O)O | human astrocytes | C3 secretion, ELISA |  | together with: stimulated PBMC supernatant | < 0.025 µM
O=C(CN1CCN(c2ccc(Cl)cc2)CC1)Nc1ccc(C(=O)C=Cc2ccccc2)cc1 | HCT-116, PC-3, MCF7, MDA-MB-231 average | MTT |  |  | 36 µM
CCCCCCCCNC(=O)C[C@H]1Oc2ccccc2C(=O)[C@]1(C)[N+](=O)[O-] | DU-145 | cell growth or viability, SRB |  | 96 h | 6.81 µM
